Experimental data of several laboratories.
Each line is one published result; not all experiments were run side by side. ± marks the error that the study gave.

SMILES = CC(C)C[C@H](NC(=O)[C@H](CC(C)C)NC(=O)[C@H](CCCNC(=N)N)NC(=O)CCCCCNC(=O)/C=C/c1ccc(O)c(O)c1)C(=O)N[C@@H](CCCNC(=N)N)C(N)=O; assay = RP-HPLC, C18 column; scale = higher is more hydrophobic; quantity = retention time; value = 5.1 min
SMILES = C/C=C(/C)C(=O)O[C@H]1C(C)=C2[C@H]([C@@H]1OC(=O)CCCCCCC)[C@@](C)(OC(C)=O)C[C@H](OC(=O)CCCCCCCCCCCNC(=O)C[C@H](N)C(=O)N[C@@H](CCC(=O)N[C@@H](CCC(=O)N[C@@H](CCC(=O)N[C@@H](CCC(=O)O)C(=O)O)C(=O)O)C(=O)O)C(=O)O)[C@@]1(O)[C@H]2OC(=O)[C@@]1(C)O; system = human patients; conditions = intravenous infusion, 1 h infusion; quantity = clearance; value = 199 mL/h/m²
SMILES = CC(C)C[C@H](NC(=O)C[C@H](O)[C@H](CC(C)C)NC(=O)[C@H](Cc1c[nH]cn1)NC(=O)CNC(=O)[C@@H](NC(=O)[C@H](C)NC(=O)[C@H](Cc1c[nH]c2ccccc12)NC(=O)[C@H](CCC(N)=O)NC(=O)[C@@H](Cc1ccccc1)NC(=O)CCOCCOCCOCCNC(=O)CN1CCN(CC(=O)O)CCN(CC(=O)O)CC1)C(C)C)C(N)=O [gallium-68 labelled]; assay = microPET imaging; system = mouse PC-3 xenograft, PC-3 tumour; conditions = intravenous, 3.7 MBq, 60 min; quantity = maximum tumour uptake; value = 4.91 ± 1 %ID/g
SMILES = CCn1cc(C(=O)NCCCCCC(=O)N[C@@H](CCCNC(=N)N)C(=O)N[C@@H](CCCNC(=N)N)C(=O)N[C@@H](Cc2c[nH]c3ccccc23)C(=O)N[C@@H](CCC(N)=O)C(=O)N[C@@H](Cc2c[nH]c3ccccc23)C(=O)N[C@@H](CCCNC(=N)N)C(N)=O)c(=O)c2cc3c(cc21)OCO3; assay = RP-HPLC, C18 column; scale = higher is more hydrophobic; quantity = retention time; value = 5.8 min
SMILES = C=C1CC[C@H](OCCCNC(=O)CCOCCOCCOCCOCCOCCOCCOCCOCCOCCOCCOCCOCCOCCOCCOCCOCCOCCOCCOCCOCCOCCOCCOCCOCCOCCOCCOCCOCCOCCOCCOCCOCCOCCOCCOCCOCCNC(=O)CCN2C(=O)CC(SC[C@H](NC(=O)[C@H](Cc3ccccc3)NC(=O)[C@H](CC(N)=O)NC(=O)[C@H](Cc3c[nH]cn3)NC(=O)[C@@H](NC(=O)[C@H](CC(=O)O)NC(=O)[C@H](CCC(N)=O)NC(=O)[C@H](CC(C)C)NC(=O)[C@H](CCCCN)NC(=O)[C@H](CCCCN)NC(=O)[C@H](CCCNC(=N)N)NC(=O)[C@H](CC(C)C)NC(=O)[C@H](Cc3c[nH]c4ccccc34)NC(=O)[C@H](CCC(=O)O)NC(=O)[C@@H](NC(=O)[C@H](CCCNC(=N)N)NC(=O)[C@H](CCC(=O)O)NC(=O)[C@H](CCSC)NC(=O)[C@H](CO)NC(=O)[C@H](CC(N)=O)NC(=O)[C@H](CC(C)C)NC(=O)[C@H](Cc3c[nH]cn3)NC(=O)[C@H](CCCCN)NC(=O)CNC(=O)[C@H](CC(C)C)NC(=O)[C@H](CC(N)=O)NC(=O)[C@H](Cc3c[nH]cn3)NC(=O)[C@H](CCSC)NC(=O)[C@H](CC(C)C)NC(=O)[C@H](CCC(N)=O)NC(=O)[C@@H](NC(=O)[C@H](CCC(=O)O)NC(=O)[C@H](CO)NC(=O)[C@@H](NC(=O)[C@@H](N)CO)C(C)C)[C@@H](C)CC)C(C)C)C(C)C)C(N)=O)C2=O)C/C1=C/C=C1\CCC[C@]2(C)[C@@H]([C@H](C)CCCC(C)(C)O)CC[C@@H]12 (some centres unmarked); system = Sprague Dawley rat; conditions = subcutaneous, 3 µg/kg daily, 89 days; scale = reference: 1 µg/kg dose; quantity = dose-normalized AUC; value = 0.98
SMILES = CCCC[C@H](NC(=O)CNC(=O)CNC(=O)CN1CCN(CC(=O)O)CCN(CC(=O)O)CCN(CC(=O)O)CC1)C(=O)N[C@H]1CC(=O)NCCCC[C@@H](C(N)=O)NC(=O)[C@H](Cc2c[nH]c3ccccc23)NC(=O)[C@H](CCCNC(=N)N)NC(=O)[C@@H](Cc2ccccc2)NC(=O)[C@H](Cc2c[nH]cn2)NC1=O [lutetium-177 labelled]; system = C57 mouse, female, lung; conditions = intravenous, 0.037 MBq, 2 h; quantity = tissue uptake; value = 0.38 ± 0.05 %ID/g
SMILES = N=C(N)NCCC[C@@H]1NC(=O)[C@H](CCCCNC(=O)CCC(C(=O)O)N2CCCN3CCN(CCCN(C(CCC(=O)NCCCC[C@@H]4NC(=O)[C@@H](Cc5ccc(O)cc5)NC(=O)[C@H](CC(=O)O)NC(=O)CNC(=O)[C@H](CCCNC(=N)N)NC4=O)C(=O)O)CC3)CC2)NC(=O)[C@@H](Cc2ccc(O)cc2)NC(=O)[C@H](CC(=O)O)NC(=O)CNC1=O (some centres unmarked) [copper-64 labelled]; system = SCID mouse, PC-3 xenograft, tumour; conditions = iv, dose not given, 4 h; quantity = tumour uptake; value = 2.4 ± 0.22 %ID/g
SMILES = CCCC[C@@H]1NC(=O)[C@@H](CC(C)C)NC(=O)[C@H](CCCCNC(=O)CN2CCN(CC(=O)O)CCN(CC(=O)O)CC2)NC(=O)[C@@H](CO)NC(=O)[C@H](Cc2c[nH]cn2)NC(=O)[C@@H](Cc2c[nH]c3ccccc23)NC1=O; system = mouse plasma; conditions = 24 h; quantity = free 64Cu; value = 6.6%
SMILES = CCCC[C@H](NC(=O)CCCCCCCNC(=O)CN1CCN(CC(=O)O)CCN(CC(=O)O)CC1)C(=O)N[C@H]1CC(=O)NCCCC[C@@H](C(N)=O)NC(=O)[C@H](Cc2c[nH]c3ccccc23)NC(=O)[C@H](CCCNC(=N)N)NC(=O)[C@@H](Cc2ccccc2)NC(=O)[C@H](Cc2c[nH]cn2)NC1=O [copper-64 labelled]; system = C57 mice, tumor; conditions = intravenous, 0.37 MBq, 2 h; quantity = tissue uptake; value = 7.71 ± 0.67 %ID/g
SMILES = N=C(N)NCCC[C@H](NC(=O)[C@H](Cc1c[nH]c2ccccc12)NC(=O)[C@H](CCC(N)=O)NC(=O)[C@H](Cc1c[nH]c2ccccc12)NC(=O)[C@H](CCCNC(=N)N)NC(=O)[C@H](Cc1c[nH]c2ccccc12)NC(=O)[C@H](CCC(N)=O)NC(=O)[C@H](Cc1c[nH]c2ccccc12)NC(=O)[C@H](CCCNC(=N)N)NC(=O)CCCCCNC(=O)/C=C/c1ccc(O)c(O)c1)C(N)=O; assay = RP-HPLC, C18 column; scale = higher is more hydrophobic; quantity = retention time; value = 6.3 min
SMILES = NC(=O)CCOCCOCCOCCOCCOCCOCCNC(=O)[C@H](Cc1c[nH]cn1)NC(=O)[C@H](Cc1c[nH]cn1)NC(=O)c1ccc(-c2c3nc(c(-c4ccccc4)c4ccc([nH]4)c(-c4ccc(C(=O)N[C@@H](Cc5c[nH]cn5)C(=O)N[C@@H](Cc5c[nH]cn5)C(=O)NCCOCCOCCOCCOCCOCCOCCC(N)=O)cc4)c4nc(c(-c5ccccc5)c5ccc2[nH]5)C=C4)C=C3)cc1; assay = pH titration; conditions = imidazole group; quantity = pKa; value = 5.7

A few entries again:
SMILES = C=C1CC[C@H](OCCCNC(=O)CCOCCOCCOCCOCCOCCOCCOCCOCCOCCOCCOCCOCCOCCOCCOCCOCCOCCOCCOCCOCCOCCOCCOCCOCCOCCOCCOCCOCCOCCOCCOCCOCCOCCOCCOCCOCCNC(=O)CCN2C(=O)CC(SC[C@H](NC(=O)[C@H](Cc3ccccc3)NC(=O)[C@H](CC(N)=O)NC(=O)[C@H](Cc3c[nH]cn3)NC(=O)[C@@H](NC(=O)[C@H](CC(=O)O)NC(=O)[C@H](CCC(N)=O)NC(=O)[C@H](CC(C)C)NC(=O)[C@H](CCCCN)NC(=O)[C@H](CCCCN)NC(=O)[C@H](CCCNC(=N)N)NC(=O)[C@H](CC(C)C)NC(=O)[C@H](Cc3c[nH]c4ccccc34)NC(=O)[C@H](CCC(=O)O)NC(=O)[C@@H](NC(=O)[C@H](CCCNC(=N)N)NC(=O)[C@H](CCC(=O)O)NC(=O)[C@H](CCSC)NC(=O)[C@H](CO)NC(=O)[C@H](CC(N)=O)NC(=O)[C@H](CC(C)C)NC(=O)[C@H](Cc3c[nH]cn3)NC(=O)[C@H](CCCCN)NC(=O)CNC(=O)[C@H](CC(C)C)NC(=O)[C@H](CC(N)=O)NC(=O)[C@H](Cc3c[nH]cn3)NC(=O)[C@H](CCSC)NC(=O)[C@H](CC(C)C)NC(=O)[C@H](CCC(N)=O)NC(=O)[C@@H](NC(=O)[C@H](CCC(=O)O)NC(=O)[C@H](CO)NC(=O)[C@@H](NC(=O)[C@@H](N)CO)C(C)C)[C@@H](C)CC)C(C)C)C(C)C)C(N)=O)C2=O)C/C1=C/C=C1\CCC[C@]2(C)[C@@H]([C@H](C)CCCC(C)(C)O)CC[C@@H]12 (some centres unmarked); system = Sprague Dawley rat; conditions = subcutaneous, 3 µg/kg daily, 89 days; scale = reference: 1 µg/kg dose; quantity = dose-normalized AUC; value = 0.98
SMILES = CCCC[C@H](NC(=O)CNC(=O)CNC(=O)CN1CCN(CC(=O)O)CCN(CC(=O)O)CCN(CC(=O)O)CC1)C(=O)N[C@H]1CC(=O)NCCCC[C@@H](C(N)=O)NC(=O)[C@H](Cc2c[nH]c3ccccc23)NC(=O)[C@H](CCCNC(=N)N)NC(=O)[C@@H](Cc2ccccc2)NC(=O)[C@H](Cc2c[nH]cn2)NC1=O [lutetium-177 labelled]; system = C57 mouse, female, lung; conditions = intravenous, 0.037 MBq, 2 h; quantity = tissue uptake; value = 0.38 ± 0.05 %ID/g
